Experimental data collected from several papers.
Each line is one published result; not all experiments were run side by side. Several values in a cell are separate wells, animals, samples, runs or records.
MAPK1: Mitogen-activated protein kinase 1 (MAPK1, Homo sapiens, UniProt P28482)

| Structure (SMILES) | target | assay | system | conditions | scale | quantity | result |
| --- | --- | --- | --- | --- | --- | --- | --- |
| CNC(=O)C1CCN(c2cc(C)c(F)cc2NC(=O)c2ccc(-c3cc(O)ccc3C)c(C)c2)CC1 | MAPK1 | binding, competition with immobilised ligand |  | 1 µM |  | remaining binding | 100% |
| O=C(Cc1ccc(OCc2ccccc2)cc1)NC1(C(=O)O)CCN(C(=O)c2ccc(-c3cccc(Cl)c3)cc2)CC1 | MAPK1 | enzyme activity, inhibitor |  | 10 µM |  | activity vs control | 97% |
| CN(C)c1ccc(-n2cc(COC(=O)[C@]3(C)C=C(C(=O)OC(C)(C)C)C(=O)CC3)nn2)cc1 | Mitogen-activated protein kinase 1, with MKK1 (MAPK1, Homo sapiens, UniProt P28482) | MKK1-ERK2 interaction, NanoBiT luminescence | HEK293T | concentration not given | reference: untreated | relative protein interaction | 0.672 |
| CN1CCN(Cc2ccc(-c3ccc(CO[C@H]4CCC[C@@H]4NC(=O)c4cc(-c5cnn(C)c5)cnc4N)cc3)cc2)CC1 | MAPK1 | enzyme activity, inhibitor |  | 0.1 µM |  | inhibition | -1% |
| Cc1ccc(C)c(-c2ccc3nc(NC(=O)C4CCCCC4)nn3c2)c1 | MAPK1 | enzyme activity, Dundee kinase panel |  | 10 µM |  | remaining activity | 86% |
| COC(=O)[C@@]1(C)C=C(C(=O)Nc2cccc(C(=O)Nc3ccc(Nc4nccc(-c5cccnc5)n4)c(C)c3)c2)C(=O)CC1 | MAPK1 | enzyme activity, inhibitor |  | 4.938 µM, unit not given | reference: vehicle | remaining activity | 0.925 and 0.827 and 0.998 |
| COc1c(Cl)cccc1Nc1c(-c2ccncc2C#C[C@@]2(C)CCCN2C(=O)/C=C/CN(C)C)[nH]c2c1C(=O)NCC2 | MAPK1 | binding, competition with immobilised ligand |  | 3 µM |  | remaining binding | 98% |
| O=C=[N][Ru-4]123([n]4c5ccc(O)cc5c5c6c(c7cc(F)c[n+]1c7c54)C(=O)NC6=O)[S+]1CC[S+]2CC[S+]3CC1 (stereo not drawn) | MAPK1 | enzyme activity |  | 100 nM, human enzyme, with: 10 µM ATP | reference: untreated | remaining activity | 89% |
| C#CCOC(=O)[C@@]1(C)C=C(C(=O)OC(C)(C)C)C(=O)CC1 | MAPK1 | enzyme activity, D-SENSOR |  | 4.938 µM, single replicate |  | normalized kinase activity | 1.01 and 1.13 and 0.998 |
| NC(=O)[C@@H](O)C[C@H]1CCc2sc3ncnc(O[C@H]4CC[C@H](N5CCOCC5)CC4)c3c21 | MAPK1 | enzyme activity, inhibitor |  | 10 µM |  | inhibition | 6% |
| Cc1cccc(O[C@H]2CCC[C@@H](C(C)CNCc3ccncc3)C2)c1 (relative stereo) | MAPK1 | enzyme activity, inhibitor |  | 10 µM |  | inhibition | -11% |
| Cc1nc2c(F)cc(-c3nc(Nc4ccc(CNC(=O)CCCCCCC(=O)NO)cc4)ncc3F)cc2n1C(C)C | MAPK1 | enzyme activity, inhibitor |  | 1 µM |  | inhibition | 37% |
| COc1ccc(NC(=O)Nc2ccc3c(c2)C(=O)N(C(C)CO)CC(C)C(CN(C)Cc2ccc4c(c2)OCO4)O3)cc1 (stereo not drawn) | MAPK1 | kinase activity, KinaseProfiler |  | 0.03 µM, species human | reference: control | remaining activity | 97% |
| CNC(=O)C[C@H](Cc1ccc(C#N)cc1)NC(=O)c1cc(-c2ccc(CN[C@H](C)c3ccc(C)cc3)o2)ccc1Cl | MAPK1 | enzyme activity, inhibitor |  | 1 µM |  | activity vs control | 97% |
| CC(C)=CC1OC(C)(C)C2C=C3C(=O)C(Cl)=CC(O)C3C3C(O)C4OC4C(=O)C132 (stereo not drawn) | MAPK1 | cell-free assay, competition with immobilised ligand |  | 10 µM |  | remaining binding | 81% |
| CN1CC[C@@H](COc2cnc(C#N)cc2-c2ccn3nc(NC(=O)C4CC4)cc3c2)C1 | MAPK1 | inhibitor, KinaseProfiler panel |  | 1 µM |  | inhibition | -1% |
| Nc1nc(Nc2ccccc2)sc1C(=O)c1ccccc1 | MAPK1 | enzyme activity, inhibitor |  | 10 µM |  | remaining activity | 26% |
| C[C@H]1CN(C(=O)c2cn(-c3ccnc(N)n3)c3cc(C#CC4(O)CCCCC4)ccc23)CCN1 | MAPK1 | enzyme activity, inhibitor, FRET |  | 1 µM |  | inhibition | -1% |
| C=CC(=O)Nc1cccc(-c2cnc3[nH]cc(C(=O)NC(C)(C)C)c3n2)c1 | MAPK1 | kinase activity |  | 0.1 µM |  | inhibition | 2% |
| COc1ccc(O)cc1-c1c[nH]c2ncc(-c3cncc(C(=O)N(C)C)c3)cc12 | MAPK1 | binding, competition with immobilised ligand |  | 0.2 µM |  | inhibition | -17.6% |
| Cc1cccc(-c2ccc3nc(NC(=O)C4CCCO4)nn3c2)c1 (stereo not drawn) | MAPK1 | enzyme activity, Dundee kinase panel |  | 10 µM |  | remaining activity | 93% |

Repeated from above:
| Structure (SMILES) | target | assay | system | conditions | scale | quantity | result |
| --- | --- | --- | --- | --- | --- | --- | --- |
| CN1CC[C@@H](COc2cnc(C#N)cc2-c2ccn3nc(NC(=O)C4CC4)cc3c2)C1 | MAPK1 | inhibitor, KinaseProfiler panel |  | 1 µM |  | inhibition | -1% |
| Nc1nc(Nc2ccccc2)sc1C(=O)c1ccccc1 | MAPK1 | enzyme activity, inhibitor |  | 10 µM |  | remaining activity | 26% |
| C[C@H]1CN(C(=O)c2cn(-c3ccnc(N)n3)c3cc(C#CC4(O)CCCCC4)ccc23)CCN1 | MAPK1 | enzyme activity, inhibitor, FRET |  | 1 µM |  | inhibition | -1% |
